Measurements collected from several papers.
Parts stem from different laboratories: compare values within a part only. Values joined by “and” are separate records of one study, mostly repeats; a detail may differ.
Sequence of UniProt P10721 (whole entry, unmodified, looked up): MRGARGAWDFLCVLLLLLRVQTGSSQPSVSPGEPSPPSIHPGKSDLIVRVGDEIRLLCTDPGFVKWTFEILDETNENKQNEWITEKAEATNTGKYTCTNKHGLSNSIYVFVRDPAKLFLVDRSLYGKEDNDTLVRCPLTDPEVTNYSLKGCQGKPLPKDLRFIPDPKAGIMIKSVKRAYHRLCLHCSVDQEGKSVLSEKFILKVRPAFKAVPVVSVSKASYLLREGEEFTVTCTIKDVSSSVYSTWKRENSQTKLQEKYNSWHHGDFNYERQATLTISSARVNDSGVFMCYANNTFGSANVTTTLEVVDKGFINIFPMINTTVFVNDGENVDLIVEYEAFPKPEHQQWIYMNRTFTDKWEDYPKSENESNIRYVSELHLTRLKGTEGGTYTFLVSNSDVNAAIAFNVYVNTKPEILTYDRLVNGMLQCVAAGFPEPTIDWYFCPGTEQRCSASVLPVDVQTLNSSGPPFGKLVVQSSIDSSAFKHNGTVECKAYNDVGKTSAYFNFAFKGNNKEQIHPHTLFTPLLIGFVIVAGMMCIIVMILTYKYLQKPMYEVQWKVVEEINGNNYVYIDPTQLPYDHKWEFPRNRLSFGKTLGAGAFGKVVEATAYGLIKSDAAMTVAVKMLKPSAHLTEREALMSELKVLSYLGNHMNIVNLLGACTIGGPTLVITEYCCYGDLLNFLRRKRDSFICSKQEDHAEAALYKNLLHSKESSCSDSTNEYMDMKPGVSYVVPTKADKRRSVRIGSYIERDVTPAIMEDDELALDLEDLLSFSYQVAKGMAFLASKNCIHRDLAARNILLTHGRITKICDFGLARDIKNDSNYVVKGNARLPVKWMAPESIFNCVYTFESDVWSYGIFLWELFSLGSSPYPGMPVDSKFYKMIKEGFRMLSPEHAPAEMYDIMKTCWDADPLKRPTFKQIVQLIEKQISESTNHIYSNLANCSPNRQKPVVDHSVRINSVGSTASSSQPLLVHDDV
Sequence of UniProt P48729 (whole entry, looked up): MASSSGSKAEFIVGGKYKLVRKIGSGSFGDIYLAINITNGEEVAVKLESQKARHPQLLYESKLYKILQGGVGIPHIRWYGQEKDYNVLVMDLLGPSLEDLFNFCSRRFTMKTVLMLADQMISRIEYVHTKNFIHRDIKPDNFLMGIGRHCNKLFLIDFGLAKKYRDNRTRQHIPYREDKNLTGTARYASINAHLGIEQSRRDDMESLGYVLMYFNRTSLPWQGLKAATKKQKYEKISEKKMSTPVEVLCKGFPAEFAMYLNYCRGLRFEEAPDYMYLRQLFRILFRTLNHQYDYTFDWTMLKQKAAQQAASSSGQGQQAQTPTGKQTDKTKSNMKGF
Sequence of UniProt Q12851 (whole entry, looked up): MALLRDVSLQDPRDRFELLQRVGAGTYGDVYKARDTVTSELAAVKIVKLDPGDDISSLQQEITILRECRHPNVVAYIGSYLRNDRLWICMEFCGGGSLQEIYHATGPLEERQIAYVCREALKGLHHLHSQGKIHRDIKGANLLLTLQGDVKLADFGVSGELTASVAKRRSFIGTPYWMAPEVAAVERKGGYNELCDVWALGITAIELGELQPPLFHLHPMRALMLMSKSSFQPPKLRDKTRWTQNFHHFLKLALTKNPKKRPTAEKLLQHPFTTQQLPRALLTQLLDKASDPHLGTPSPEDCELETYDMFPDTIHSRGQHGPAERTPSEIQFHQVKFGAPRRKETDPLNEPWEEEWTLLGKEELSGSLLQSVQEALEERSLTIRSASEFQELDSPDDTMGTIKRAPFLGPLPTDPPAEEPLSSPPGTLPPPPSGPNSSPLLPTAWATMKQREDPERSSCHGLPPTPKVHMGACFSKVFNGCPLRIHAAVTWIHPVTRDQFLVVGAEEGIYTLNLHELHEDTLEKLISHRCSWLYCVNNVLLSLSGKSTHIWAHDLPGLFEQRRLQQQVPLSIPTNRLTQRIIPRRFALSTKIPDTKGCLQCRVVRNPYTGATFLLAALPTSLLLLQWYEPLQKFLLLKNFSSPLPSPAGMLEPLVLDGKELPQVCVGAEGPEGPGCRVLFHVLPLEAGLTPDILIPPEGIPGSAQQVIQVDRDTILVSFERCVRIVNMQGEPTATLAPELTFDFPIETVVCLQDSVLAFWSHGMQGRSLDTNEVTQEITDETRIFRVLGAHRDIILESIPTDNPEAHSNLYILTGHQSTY
Sequence of UniProt Q15349 (whole entry, looked up): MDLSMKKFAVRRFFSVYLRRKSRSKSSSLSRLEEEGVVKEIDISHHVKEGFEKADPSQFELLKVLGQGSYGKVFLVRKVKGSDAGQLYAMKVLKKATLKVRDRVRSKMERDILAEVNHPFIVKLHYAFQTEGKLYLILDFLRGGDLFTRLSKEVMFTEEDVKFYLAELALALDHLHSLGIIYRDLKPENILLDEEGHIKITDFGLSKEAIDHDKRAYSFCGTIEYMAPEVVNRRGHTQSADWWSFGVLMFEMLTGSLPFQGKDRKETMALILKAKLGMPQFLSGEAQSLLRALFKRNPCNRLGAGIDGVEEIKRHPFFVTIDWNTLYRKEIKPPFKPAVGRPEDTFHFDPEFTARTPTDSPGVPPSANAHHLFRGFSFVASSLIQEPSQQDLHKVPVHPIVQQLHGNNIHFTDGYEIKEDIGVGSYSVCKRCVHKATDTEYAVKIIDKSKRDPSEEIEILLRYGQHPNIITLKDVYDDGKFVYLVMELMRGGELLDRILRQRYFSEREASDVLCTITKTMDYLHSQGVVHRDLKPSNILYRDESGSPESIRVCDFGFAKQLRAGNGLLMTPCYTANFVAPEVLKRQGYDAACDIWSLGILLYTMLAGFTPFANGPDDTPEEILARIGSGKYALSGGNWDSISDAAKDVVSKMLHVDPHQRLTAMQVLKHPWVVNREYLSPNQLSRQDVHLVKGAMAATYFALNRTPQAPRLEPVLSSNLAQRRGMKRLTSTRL
Sequence of UniProt P78362 (whole entry, looked up): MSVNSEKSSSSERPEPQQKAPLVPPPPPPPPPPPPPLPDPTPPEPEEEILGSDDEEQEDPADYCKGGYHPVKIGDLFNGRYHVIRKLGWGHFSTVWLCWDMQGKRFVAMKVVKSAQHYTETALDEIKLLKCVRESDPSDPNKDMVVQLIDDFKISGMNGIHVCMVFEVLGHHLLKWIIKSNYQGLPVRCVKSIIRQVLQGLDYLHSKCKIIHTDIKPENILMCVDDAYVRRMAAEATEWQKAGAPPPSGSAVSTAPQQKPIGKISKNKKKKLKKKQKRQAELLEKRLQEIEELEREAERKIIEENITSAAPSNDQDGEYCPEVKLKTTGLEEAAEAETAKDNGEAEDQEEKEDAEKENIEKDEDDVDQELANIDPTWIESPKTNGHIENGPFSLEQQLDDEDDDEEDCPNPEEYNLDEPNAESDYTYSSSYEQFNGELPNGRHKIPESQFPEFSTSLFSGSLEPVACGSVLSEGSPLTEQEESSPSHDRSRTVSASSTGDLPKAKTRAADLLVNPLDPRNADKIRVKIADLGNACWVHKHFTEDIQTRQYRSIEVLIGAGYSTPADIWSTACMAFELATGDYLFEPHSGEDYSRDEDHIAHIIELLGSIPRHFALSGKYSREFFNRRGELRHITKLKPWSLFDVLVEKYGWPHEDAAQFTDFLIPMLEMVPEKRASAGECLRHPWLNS
Sequence of UniProt Q9Y243 (whole entry, looked up): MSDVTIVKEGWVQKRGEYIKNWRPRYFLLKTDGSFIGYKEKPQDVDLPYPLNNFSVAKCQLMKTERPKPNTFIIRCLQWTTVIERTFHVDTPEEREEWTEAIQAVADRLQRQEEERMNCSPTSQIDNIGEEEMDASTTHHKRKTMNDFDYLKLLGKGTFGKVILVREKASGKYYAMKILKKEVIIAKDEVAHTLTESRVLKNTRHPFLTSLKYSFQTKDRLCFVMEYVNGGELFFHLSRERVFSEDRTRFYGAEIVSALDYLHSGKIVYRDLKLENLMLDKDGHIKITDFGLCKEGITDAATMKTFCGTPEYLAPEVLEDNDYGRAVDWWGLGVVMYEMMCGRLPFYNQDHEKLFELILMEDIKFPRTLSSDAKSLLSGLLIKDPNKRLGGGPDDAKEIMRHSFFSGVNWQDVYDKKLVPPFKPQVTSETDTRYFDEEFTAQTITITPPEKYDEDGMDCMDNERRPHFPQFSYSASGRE
Sequence of UniProt Q9HBH9 (whole entry, looked up): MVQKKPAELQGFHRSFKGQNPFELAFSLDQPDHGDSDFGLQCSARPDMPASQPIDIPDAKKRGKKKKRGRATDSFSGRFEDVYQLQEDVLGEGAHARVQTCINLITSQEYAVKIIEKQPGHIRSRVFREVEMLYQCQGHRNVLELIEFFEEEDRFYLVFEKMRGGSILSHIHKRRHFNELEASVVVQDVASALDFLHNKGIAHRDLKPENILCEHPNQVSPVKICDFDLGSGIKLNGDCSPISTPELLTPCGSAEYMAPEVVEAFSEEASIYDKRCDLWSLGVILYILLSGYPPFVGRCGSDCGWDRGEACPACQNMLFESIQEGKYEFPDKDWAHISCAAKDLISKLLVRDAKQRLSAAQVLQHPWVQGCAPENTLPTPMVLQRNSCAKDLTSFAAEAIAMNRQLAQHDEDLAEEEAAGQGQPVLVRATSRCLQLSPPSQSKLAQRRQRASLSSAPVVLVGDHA

Study 1
Target: Beta-1 adrenergic receptor (ADRB1, Homo sapiens, UniProt P08588)
Sequence of UniProt P08588 (whole entry, looked up): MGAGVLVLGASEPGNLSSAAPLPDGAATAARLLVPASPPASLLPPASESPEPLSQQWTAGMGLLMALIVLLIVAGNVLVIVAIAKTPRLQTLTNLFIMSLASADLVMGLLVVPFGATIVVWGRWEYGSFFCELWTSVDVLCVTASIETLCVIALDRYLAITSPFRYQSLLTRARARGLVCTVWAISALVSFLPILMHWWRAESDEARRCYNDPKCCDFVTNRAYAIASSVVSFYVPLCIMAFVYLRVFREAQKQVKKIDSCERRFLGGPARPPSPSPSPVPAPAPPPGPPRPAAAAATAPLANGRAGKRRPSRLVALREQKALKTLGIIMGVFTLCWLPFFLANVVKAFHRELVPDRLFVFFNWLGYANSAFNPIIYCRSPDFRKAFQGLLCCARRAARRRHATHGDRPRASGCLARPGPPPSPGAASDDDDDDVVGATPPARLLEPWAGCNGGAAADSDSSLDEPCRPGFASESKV
Mode: agonist
Measurement: EC50
OC(CNc1ncnc2c1cnn2-c1ccccc1)C1CC1 (stereo not shown): ≥ 100 µM
C[n+]1ccc(-c2c3nc(c(-c4cc[n+](C)cc4)c4ccc([nH]4)c(-c4cc[n+](C)cc4)c4nc(c(-c5cc[n+](C)cc5)c5ccc2[nH]5)C=C4)C=C3)cc1: ≥ 100 µM
CNc1nc(-c2cccc3ccccc23)ccc1C#N: ≥ 100 µM
Fc1ccc(-c2ccc3ncc(Nc4ccnc(N5CCOCC5)c4)n3n2)cc1: ≥ 100 µM
CCc1ccc([S+](=O)([O-])N2CCN(c3ccccc3OC)CC2)cc1: ≥ 100 µM
OC1(c2cccc(C(F)(F)F)c2)CCN(Cc2nc(-c3cccs3)no2)CC1: ≥ 100 µM
CCC(=O)NCCCCC(NC(=O)OCc1ccccc1)C(=O)Nc1ccc2c(C)cc(=O)oc2c1 (stereo not shown): ≥ 100 µM
CN(Cc1ccc(CCN)cc1)Cc1ccc2nsnc2c1: ≥ 100 µM
O=C1NCC2(CCN(Cc3ccsc3)CC2)Oc2ccccc21: ≥ 100 µM
COc1cc(NC(=O)NCCN2CCN(c3ccccc3)CC2)cc(OC)c1OC: ≥ 100 µM
Cc1cccc(-c2n[nH]cc2-c2ccnc3ccccc23)n1: ≥ 100 µM

Study 2
Structure (SMILES): CC(=O)c1ccc(N2CCOCC2)cc1O
Effect on: enzyme activity
Mode: inhibitor
Tested at: 0.5 µM
Reference: control
Measurement: remaining activity
MKNK2 (Homo sapiens, UniProt Q9HBH9): 90.7%
MAPK12 (Homo sapiens, UniProt P53778): 78.7%
CSNK1A1 (Homo sapiens, UniProt P48729): 110%
PLK2 (Homo sapiens, UniProt Q9NYY3): 104%
PRKCD (Homo sapiens, UniProt Q05655): 97.4%
PRKG1 (Homo sapiens, UniProt Q13976): 100%
EPHA5 (Homo sapiens, UniProt P54756): 109%
BTK (Homo sapiens, UniProt Q06187): 108%
CSNK2A1 (Homo sapiens, UniProt P68400): 101%
WNK2 (Homo sapiens, UniProt Q9Y3S1): 101%
Cyclin-dependent kinase 9, with cyclin T1 (CDK9, Homo sapiens, UniProt P50750): 100%
MAP2K6 (Homo sapiens, UniProt P52564): 94.2%
KIT (Homo sapiens, UniProt P10721): 102%
LYN (Homo sapiens, UniProt P07948): 106%
NEK4 (Homo sapiens, UniProt P51957): 103%
CHEK1 (Homo sapiens, UniProt O14757): 103%
IRAK4 (Homo sapiens, UniProt Q9NWZ3): 120%
LRRK2 (Homo sapiens, UniProt Q5S007): 96.1%
MAPK13 (Homo sapiens, UniProt O15264): 104%
MAP4K2 (Homo sapiens, UniProt Q12851): 116%
AKT3 (Homo sapiens, UniProt Q9Y243): 107%
MAP3K10 (Homo sapiens, UniProt Q02779): 104%

Study 3
SMILES: FC(F)(F)c1ccc2c(c1)nc(-c1cccnc1)n2C1CC1
Effect on: cell-free assay
Method: competition with immobilised ligand
Tested at: 1 µM
Measurement: remaining binding
Ribosomal protein S6 kinase alpha-2, C-terminal kinase domain (RPS6KA2, Homo sapiens, UniProt Q15349): 100%
MAP2K2 (Homo sapiens, UniProt P36507): 100%
KIT (Homo sapiens, UniProt P10721, V559D/V654A): 100%
CDKL1 (Homo sapiens, UniProt Q00532): 91%
CDKL5 (Homo sapiens, UniProt O76039): 91%
SRPK2 (Homo sapiens, UniProt P78362): 93%
TXK (Homo sapiens, UniProt P42681): 100%
ERBB3 (Homo sapiens, UniProt P21860): 77%
MET (Homo sapiens, UniProt P08581): 100%
RAF1 (Homo sapiens, UniProt P04049): 76%
TNK2 (Homo sapiens, UniProt Q07912): 100%
KIT (Homo sapiens, UniProt P10721, L576P): 100%
Ribosomal protein S6 kinase alpha-4, C-terminal kinase domain (RPS6KA4, Homo sapiens, UniProt O75676): 100%
MAP3K14 (Homo sapiens, UniProt Q99558): 100%
Tyrosine-protein kinase ABL1, non-phosphorylated (ABL1, Homo sapiens, UniProt P00519, H396P): 82%
EGFR (Homo sapiens, UniProt P00533, L861Q): 100%
EPHB1 (Homo sapiens, UniProt P54762): 100%
FGFR2 (Homo sapiens, UniProt P21802): 100%
PAK2 (Homo sapiens, UniProt Q13177): 100%
DCLK3 (Homo sapiens, UniProt Q9C098): 100%
ROCK1 (Homo sapiens, UniProt Q13464): 100%
CSNK1A1 (Homo sapiens, UniProt P48729): 90%
NLK (Homo sapiens, UniProt Q9UBE8): 100%
DYRK1A (Homo sapiens, UniProt Q13627): 100%
KIT (Homo sapiens, UniProt P10721): 100%

Study 4
Cell line: mouse MPNST tumor cells
Method: high-content nuclear imaging
Item: cell number
Tested at: 10 µM
Time: 12 h
Setting: mean of 2 replicates
Reference: plate mean
Direction: higher = more cells
Measurement: nuclei count
Cc1cccc(-c2[nH]c(C34CCC(C(N)=O)(CC3)CC4)nc2-c2ccc3c(c2)OCO3)n1: -0.436 z-score
NC(=O)c1cccnc1: 0.0741 z-score
Cc1cc(NC(=O)Nc2ccc(N(C)C)cc2)c2cc(F)cc(F)c2n1: 0.157 z-score
Nc1cccc2c1CN(C1CCC(=O)NC1=O)C2=O (stereo not shown): 1.84 z-score
COc1cc(-c2cc(-c3cccc(O)c3)cnc2N)cc(OC)c1OC: 0.209 z-score
COc1ccc2cc(CCC(C)=O)ccc2c1: 2.13 z-score
COc1nc(N)nc2c1ncn2[C@@H]1O[C@H](CO)[C@@H](O)[C@@H]1O: -0.228 z-score and 1.54 z-score
CN1CCN(C2CCC(n3cc(-c4ccc(Oc5ccccc5)cc4)c4c(N)ncnc43)CC2)CC1 (stereo not shown): -6.33 z-score
CCOc1ccc(Cc2nccc3cc(OCC)c(OCC)cc23)cc1OCC: 1.75 z-score
COC(=O)c1c(C)[nH]c(C)c1C(=O)c1ccccc1Cc1ccccc1: 1.24 z-score
Cc1ccc(C=C2CNCC(=Cc3ccc(C)cc3)C2=O)cc1: -0.254 z-score
CC(=O)OCC(=O)[C@@]1(OC(C)=O)[C@@H](C)C[C@H]2[C@@H]3C[C@H](F)C4=CC(=O)C=C[C@]4(C)[C@@]3(F)[C@@H](O)C[C@@]21C: 2.22 z-score
CCCCN(CC)c1nc(C)nc2c1c(C)cn2-c1c(C)cc(C)cc1C: 3.06 z-score
Cc1ccc(-c2ncc[nH]2)cc1NC(=O)c1ccc(OCc2ccccn2)cc1: 4.66 z-score
O=C1c2ccccc2S(=O)(=O)N1CCCCN1CCN(c2ncccn2)CC1: -0.0709 z-score
CCOc1ccc2nc(S(N)(=O)=O)sc2c1: -1.11 z-score
CN1CCc2c(c3ccccc3n2Cc2ccccc2)C1: 2.54 z-score
CCCn1c(=O)c2[nH]c(-c3ccc(OCC(=O)O)cc3)nc2n(CCC)c1=O: 1.38 z-score

Some of these lines once more (study 2):
CHEK1 (Homo sapiens, UniProt O14757): 103%
MKNK2 (Homo sapiens, UniProt Q9HBH9): 90.7%
WNK2 (Homo sapiens, UniProt Q9Y3S1): 101%
PRKG1 (Homo sapiens, UniProt Q13976): 100%
MAP3K10 (Homo sapiens, UniProt Q02779): 104%
MAP2K6 (Homo sapiens, UniProt P52564): 94.2%
AKT3 (Homo sapiens, UniProt Q9Y243): 107%
IRAK4 (Homo sapiens, UniProt Q9NWZ3): 120%
MAP4K2 (Homo sapiens, UniProt Q12851): 116%
EPHA5 (Homo sapiens, UniProt P54756): 109%
PLK2 (Homo sapiens, UniProt Q9NYY3): 104%
